Experimental data pooled from the literature.
Numbered parts are unrelated; each lists some results of a single study.
Chain of UniProt Q9H2K8 (whole entry, looked up): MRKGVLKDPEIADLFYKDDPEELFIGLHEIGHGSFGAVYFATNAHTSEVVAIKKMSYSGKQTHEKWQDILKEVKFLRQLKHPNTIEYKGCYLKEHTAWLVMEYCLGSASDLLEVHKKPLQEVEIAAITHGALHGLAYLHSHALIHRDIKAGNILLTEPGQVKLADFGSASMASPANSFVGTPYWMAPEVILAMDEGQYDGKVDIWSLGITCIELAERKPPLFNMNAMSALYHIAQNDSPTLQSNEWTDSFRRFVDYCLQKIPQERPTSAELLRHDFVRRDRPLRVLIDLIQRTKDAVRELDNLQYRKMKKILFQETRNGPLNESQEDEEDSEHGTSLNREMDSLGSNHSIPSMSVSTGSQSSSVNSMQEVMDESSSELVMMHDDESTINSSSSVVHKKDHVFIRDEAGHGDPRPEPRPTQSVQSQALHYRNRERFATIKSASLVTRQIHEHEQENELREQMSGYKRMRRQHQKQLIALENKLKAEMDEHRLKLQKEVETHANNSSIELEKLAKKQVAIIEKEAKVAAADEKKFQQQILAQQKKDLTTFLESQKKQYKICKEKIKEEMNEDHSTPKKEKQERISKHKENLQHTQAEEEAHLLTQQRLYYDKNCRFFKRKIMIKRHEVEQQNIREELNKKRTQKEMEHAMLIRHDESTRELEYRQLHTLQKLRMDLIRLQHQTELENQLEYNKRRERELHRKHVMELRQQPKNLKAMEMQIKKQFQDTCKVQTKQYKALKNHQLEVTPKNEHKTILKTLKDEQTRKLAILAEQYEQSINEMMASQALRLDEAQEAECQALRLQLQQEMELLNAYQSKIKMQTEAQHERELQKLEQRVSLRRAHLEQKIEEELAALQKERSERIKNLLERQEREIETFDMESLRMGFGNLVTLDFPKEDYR

Series 1
Target: Fragile X messenger ribonucleoprotein 1, C-terminal low-complexity region (Fmr1, Mus musculus, UniProt P35922)
Technique: RNA Bind-n-Seq
Form: RNA
Sample: in vitro
Tested at: 200 nM
Setting: whole 134-nt RNA, ends assumed
Together with: 150 mM KCl
Baseline: input library
Direction: higher = stronger binding
Shared flanks, not repeated: GGGAGUUCUACAGUCCGACGAUC … UGGAAUUCUCGGGUGUCAAGG
With `UGGCCCUGGUGGCAUGGGGGGAGGAAGAGGUGGCCUCAUGGAUCGUGGUGGUCCCGGUGGAAUGUUCAGAGGUGGCCGUGGUGGAGACAG` the log2 enrichment was 0.257.
For `GCAGGAAGUAAAAACAAAUGGAAAUGCAUCGGAUAGUGGCAGGGGUGGGGGUUGCUAAGGAAAGGGUGGGAUGGGAGUGGGUAAAGAGUU`, the log2 enrichment was 0.355.
For `UCCUGUGCUACACAUCGUAUGUACCGAAUCGGCCCCCCCGGCCCCCCCGGCCCCCCCGGAAAGUAUUAUGUUACGCCGUUCGGAUCUGCA`, the log2 enrichment was 0.362.
With `CACAGACAACACGCACCCACACAGACACAGAGGGAAGGGGUUGGGAUGGGGACAGUGUGCACAGCAGGGCGGGGUAGGACCCCAGCCCCU` the log2 enrichment was 1.22.
The log2 enrichment of `GUCCUGUGCUACACAUCGUAUGUACCGAAUCGGGAAAAAAAGGGUUUUUUUGGGAGGGAAAGUAUUAUGUUACGCCGUUCGGAUCUGCAC` is reported as 0.0762.
`UCAAGUCCUGUGCUACACAUCGUAUGUACCGAAUCGGAAAGGUUUGGAAAAAGGAAAGUAUUAUGUUACGCCGUUCGGAUCUGCACUUCC` has a log2 enrichment of -0.7.
For `CUCAAGUCCUGUGCUACACAUCGUAUGUACCGAAUCGGGAAGGAAGGGAAGGGAAAGUAUUAUGUUACGCCGUUCGGAUCUGCACUUCCA`, the log2 enrichment was 0.196.
With `GUCCUGUGCUACACAUCGUAUGUACCGAAUCGGGGCCCCGGGGCCCCGGGCCCCGGGGAAAGUAUUAUGUUACGCCGUUCGGAUCUGCAC` the log2 enrichment was -0.0567.

Series 2
Target: Prothrombin, mature alpha-thrombin (F2, Homo sapiens, UniProt P00734)
Technique: aptamer microarray, sandwich
Form: DNA with 2'F-ANA
Sample: in vitro
Tested at: 200 nM
Setting: whole 15-mer aptamer, many near background
Together with: Cy3 exosite-II aptamer, 400 nM
Direction: higher = stronger binding
Strand: GGTTGGTGTGGTTGG
`2'F-ANA at 2 6 10 12 13 15` — result for “mean fluorescence intensity”: 148 a.u.
`2'F-ANA at 1 2 3 4 5 10 11 13 14 15` — result for “mean fluorescence intensity”: 74.1 a.u.
Under “mean fluorescence intensity”, `2'F-ANA at 2 3 5 6 8 10 12 13 14 15` is recorded as 55.5 a.u.
For `2'F-ANA at 3 5 6 7 8 10 11 12 13`, “mean fluorescence intensity” read 66.3 a.u.
`2'F-ANA at 2 3 5 6 8 10 11 12 13`: “mean fluorescence intensity” 54.4 a.u.
`2'F-ANA at 3 4 5 6 7 8 9 10 13` — result for “mean fluorescence intensity”: 51.8 a.u.
`2'F-ANA at 1 3 4 6 7 8 13 14 15` — result for “mean fluorescence intensity”: 67 a.u.
Under “mean fluorescence intensity”, `2'F-ANA at 1 2 3 4 5 7 8 10 11 12 14` is recorded as 50 a.u.

Single results of other studies
For `CN(C)CCCn1cc(C2=C(c3c[nH]c4ccccc34)C(=O)NC2=O)c2ccccc21`, the remaining activity was 67.6% (Serine/threonine-protein kinase TAO3 (TAOK3, Homo sapiens, UniProt Q9H2K8); enzyme activity, inhibitor; 0.5 µM; baseline: control).
The fold induction of `PhoQ, residues 284 288 289 292 302 303 SSYNSA` is reported as 7.5 (PhoP, residues 12 14 15 18 19 TTLRV (Escherichia coli, UniProt P23836); Sort-seq, item: YFP reporter; E. coli; PhoQ-PhoP variant library, together with: 10 µM Mg2+; baseline: high Mg2+ state, higher = stronger signaling).

A few entries again (series 1):
`UCAAGUCCUGUGCUACACAUCGUAUGUACCGAAUCGGAAAGGUUUGGAAAAAGGAAAGUAUUAUGUUACGCCGUUCGGAUCUGCACUUCC` has a log2 enrichment of -0.7.
